# Assay results collected from several papers.
# Protocols differ between the studies behind these lines. “And” joins repeats or separate records; there may be more than shown. ± gives the spread as reported.
Compound,assay,test system,setting,how to read,measurement,value
CS(=O)(=O)NC(=O)NCc1ccccc1,,,"pH 7.4, first measurement",,logD,-1.19
CCc1ccc(CC/C=C/c2ccc3c(c2)C(=O)CC3)cc1,,"Sprague-Dawley rat, male","oral, 450 mg/kg/day, 14 days",,LDH serum activity,406 U/L
CCOC(=O)[C@](CC)(CCC[S+]([O-])CCOCCOCCNC(=O)OC(C)(C)C)NC(=O)c1ccc(C2CC2)c(Cc2ccc(F)cc2)n1 (some centres unmarked),,PAMPA,,,Papp,5.4 ×10⁻⁶ cm/s
CC1(C)[C@H](C(=O)OCc2cccc(Oc3ccccc3)c2)[C@@H]1C=C(Cl)Cl,refers to: CYP2C19,"human, age 6 months, recombinant human CYP2C19",0.1 µM,,enzyme contribution to clearance,2.5%
C[C@@H](NC(=O)N1C(=O)[C@H](Cc2ccnc(N)c2)[C@H]1C(=O)O)C1CCCCC1,,healthy adult Chinese volunteers,"continuous intravenous infusion, 1.5 mg/kg/h, 5-day infusion, CTCAE 5.0 grading",,abnormal liver function leading to discontinuation,0%
NCCCC[C@@H]1NC(=O)[C@@H](Cc2c[nH]c3ccccc23)NC(=O)[C@H](c2ccccc2)NC(=O)[C@@H]2C[C@@H](OC(=O)NCCN)CN2C(=O)[C@H](Cc2ccccc2)NC(=O)[C@H](Cc2ccc(OCc3ccccc3)cc2)NC1=O,,healthy human volunteers,1950 µg twice daily,,subjects with adverse event Fatigue,6%
O=C1O[C@H]2[C@@H]3OC(=O)c4cc(O)c(O)c(O)c4-c4c(O)c(O)c5oc(=O)c6c(c(O)c(O)c7oc(=O)c4c5c76)-c4c(cc(O)c(O)c4O)C(=O)OC[C@H]3OC(O)[C@@H]2OC(=O)c2cc(O)c(O)c(O)c2-c2c1cc(O)c(O)c2O (mixture of isomers),acute oral toxicity,BALB/c mice,"oral, dose not given",,liver weight,1.41 g
CN1CCN(S(=O)(=O)c2cc([N+](=O)[O-])ccc2N(CCOS(C)(=O)=O)CCOS(C)(=O)=O)CC1,,"NSG mice female, plasma","intraperitoneal, 5 mg/kg, 0.5 h",,concentration,340 nM
C[C@@H]1NC(=O)[C@H](CCCCNC(=O)CO/N=C/C(=O)NCCCC[C@@H]2NC(=O)[C@@H](Cc3ccccc3)NC(=O)[C@H](CC(=O)O)NC(=O)CNC(=O)[C@H](CCCNC(=N)N)NC2=O)NC(=O)CNC(=O)[C@@H]2CCCN2C(=O)[C@H](CCCCNC(=O)CO/N=C/C(=O)NCCCC[C@@H]2NC(=O)[C@@H](Cc3ccccc3)NC(=O)[C@H](CC(=O)O)NC(=O)CNC(=O)[C@H](CCCNC(=N)N)NC2=O)NC(=O)[C@H](CCCCNC(=O)CN2CCCNCCNCCCNCC2)NC(=O)[C@H](CCCCNC(=O)CO/N=C/C(=O)NCCCC[C@@H]2NC(=O)[C@@H](Cc3ccccc3)NC(=O)[C@H](CC(=O)O)NC(=O)CNC(=O)[C@H](CCCNC(=N)N)NC2=O)NC(=O)CNC(=O)[C@@H]2CCCN2C(=O)[C@H](CCCCNC(=O)CO/N=C/C(=O)NCCCC[C@@H]2NC(=O)[C@@H](Cc3ccccc3)NC(=O)[C@H](CC(=O)O)NC(=O)CNC(=O)[C@H](CCCNC(=N)N)NC2=O)NC1=O [copper-64 labelled],PET imaging,"mouse, U-87 MG tumour xenograft, tumor","intravenous, 24 h",,tissue uptake,2.49 ± 0.04 %ID/g
N=C(N)NCCC[C@H](NC(=O)[C@H](Cc1ccccc1)NC(=O)[C@H](CCC(N)=O)NC(=O)OCc1ccccc1)C(=O)c1nccs1,,"C57BL/6J mice female, plasma","intravenous, 5 mg/kg",,Vss,3.41 L/kg
COc1cccc(Oc2ccccc2NC(=O)CNC(=O)c2cccc3ccccc23)c1,,"esterase-deficient SCID mice, male, blood","oral, 40 mg/kg/day, 14 days, toxicity study",reference: white cells,lymphocytes,64% and 65% and 44.1%
COc1ccc(-c2c(-c3ccc(C#N)c(F)c3)nc(N3CCC(N)CC3)n(C)c2=O)cc1F,refers to: Dysgeusia,neuroendocrine neoplasm patients,"oral, 60 mg, any grade, dose expansion",,treatment-related adverse event incidence,13%
Clc1ccc(-c2ccccc2)cc1,,"Sprague-Dawley rats, female, serum","inhalation, 23 µg/rat, 4 h after exposure",,calcium,11 ± 1 mg/dL
O=C(c1ccc(F)c(F)c1Nc1ccc(I)cc1F)N1CC(O)([C@@H]2CCCCN2)C1,,patients aged 2 to 6 years,"oral, dose not given",,serious adverse events,40%
CC(=O)c1c(C)c2cnc(Nc3ccc(C4CCN(CCS(C)(=O)=O)CC4)cn3)nc2n(C2CCCC2)c1=O,,"human, plasma","oral, 100 mg, day 1 single dose",,Tmax,7.67 h
COc1ncccc1-c1cnn2ccc(N3CCN(C(=O)OC(C)C)CC3)nc12,,"mouse nerve ligation model, brain","oral, 3 mg/kg, 180 min after last dose, repeat dosing day 1",,drug concentration,2300 nM
CO[C@H]1C[C@@H]2CC[C@@H](C)[C@@](O)(O2)C(=O)C(=O)N2CCCC[C@H]2C(=O)O[C@H]([C@H](C)C[C@@H]2CC[C@@H](OC(=O)NCCOCCOCCOCCOCCOCCOCCOCCOCCC(=O)N3CCc4cc(Cn5nc(-c6ccc7oc(N)nc7c6)c6c(N)ncnc65)ccc4C3)[C@H](OC)C2)C[C@@H](O)[C@H](C)/C=C(\C)[C@@H](O)[C@@H](OC)C(=O)[C@H](C)C[C@H](C)/C=C/C=C/C=C/1C,,advanced solid tumour patients,"intravenous, dose not given, any grade, all doses",,incidence of TEAE,100%
C=CCNc1c(O)cc2c(O)c1C[C@@H](C)C[C@H](OC)[C@H](O)[C@@H](C)/C=C(\C)[C@H](OC(N)=O)[C@@H](OC)/C=C\C=C(/C)C(=O)N2,,"unresectable or metastatic STS, GIST, other","intravenous, 300 mg/m^2",,patients with nausea TEAE,0%
O=C(O)CCCOc1ccc(F)cc1-c1cc(-c2ccccc2C(F)(F)F)n(-c2ccccc2)n1,,"male Crl:CD(SD) rats, testes","intravenous, 25 µg/kg, 14 d",,relative organ weight,0.76 ± 0.13 g%
CC(C)CC(=O)OC[C@H]1O[C@@](C#N)(c2ccc3c(N)ncnn23)[C@H](O)[C@@H]1O,plasma protein binding,mouse plasma,"0.9 µM, time not given",,recovery,91.4%
C=CC(=O)N1CC[C@H](n2nc(C#Cc3cc(OC)cc(OC)c3)c3c(N)ncnc32)C1,,patients with advanced solid tumours,"oral, dose not given, Stomatitis, any grade, QD, all patients",,adverse drug reaction incidence,11.6%
N[C@@H]1c2ccccc2OC12CCN(c1cnc3c(N4CCCc5ncccc54)n[nH]c3n1)CC2,,advanced metastatic solid tumour patients,"oral, 20 mg once daily, cycle 1, 21 days",,dose-limiting toxicity,0%
C[C@]1(CO)Cc2ncn(-c3ccc(C#N)c(Cl)c3)c2C(=O)O1,,human,"40 mg multiple doses, fasted",,subjects with drug-related urine abnormality,0%
O=c1ccc2ccc3occc3c2o1,post-procedure stability,rat plasma,"200 ng/mL, 1 h, room temperature",,accuracy,80.4%
CN1CCN(c2cccc3c2CCN(C(=O)/C=C/c2c(-n4cnnn4)ccc(Cl)c2F)[C@@H]3C(=O)Nc2ccc(C(=O)O)cc2)C(=O)C1,,healthy human subjects,"intravenous infusion, 9 mg/h, 5 days",,deaths,0%
COc1cc2c(Oc3ccc4[nH]c(C)cc4c3F)ccnc2cc1OCC1(N)CC1,,paediatric recurrent refractory sarcoma,10 mg,,grade 3 Dizzy,0%

# Repeated from above:
Compound,assay,test system,setting,how to read,measurement,value
C[C@@H]1NC(=O)[C@H](CCCCNC(=O)CO/N=C/C(=O)NCCCC[C@@H]2NC(=O)[C@@H](Cc3ccccc3)NC(=O)[C@H](CC(=O)O)NC(=O)CNC(=O)[C@H](CCCNC(=N)N)NC2=O)NC(=O)CNC(=O)[C@@H]2CCCN2C(=O)[C@H](CCCCNC(=O)CO/N=C/C(=O)NCCCC[C@@H]2NC(=O)[C@@H](Cc3ccccc3)NC(=O)[C@H](CC(=O)O)NC(=O)CNC(=O)[C@H](CCCNC(=N)N)NC2=O)NC(=O)[C@H](CCCCNC(=O)CN2CCCNCCNCCCNCC2)NC(=O)[C@H](CCCCNC(=O)CO/N=C/C(=O)NCCCC[C@@H]2NC(=O)[C@@H](Cc3ccccc3)NC(=O)[C@H](CC(=O)O)NC(=O)CNC(=O)[C@H](CCCNC(=N)N)NC2=O)NC(=O)CNC(=O)[C@@H]2CCCN2C(=O)[C@H](CCCCNC(=O)CO/N=C/C(=O)NCCCC[C@@H]2NC(=O)[C@@H](Cc3ccccc3)NC(=O)[C@H](CC(=O)O)NC(=O)CNC(=O)[C@H](CCCNC(=N)N)NC2=O)NC1=O [copper-64 labelled],PET imaging,"mouse, U-87 MG tumour xenograft, tumor","intravenous, 24 h",,tissue uptake,2.49 ± 0.04 %ID/g
CC(C)CC(=O)OC[C@H]1O[C@@](C#N)(c2ccc3c(N)ncnn23)[C@H](O)[C@@H]1O,plasma protein binding,mouse plasma,"0.9 µM, time not given",,recovery,91.4%
COc1cccc(Oc2ccccc2NC(=O)CNC(=O)c2cccc3ccccc23)c1,,"esterase-deficient SCID mice, male, blood","oral, 40 mg/kg/day, 14 days, toxicity study",reference: white cells,lymphocytes,64% and 65% and 44.1%
COc1cc2c(Oc3ccc4[nH]c(C)cc4c3F)ccnc2cc1OCC1(N)CC1,,paediatric recurrent refractory sarcoma,10 mg,,grade 3 Dizzy,0%
